{"data": "Results pooled from the literature", "PRSS1": "Serine protease 1 (PRSS1, Bos taurus, UniProt P00760)", "ERN2 RNase domain": "Serine/threonine-protein kinase/endoribonuclease IRE2, RNase domain (ERN2, Homo sapiens, UniProt Q76MJ5)", "PTGS2": "Prostaglandin G/H synthase 2 (PTGS2, Ovis aries, UniProt P79208)", "ERN1 RNase domain": "Serine/threonine-protein kinase/endoribonuclease IRE1, RNase domain (ERN1, Homo sapiens, UniProt O75460)", "CTSL": "Procathepsin L (CTSL, Homo sapiens, UniProt P07711)", "Dipeptidyl peptidase 8": "Dipeptidyl peptidase 8 (Homo sapiens, UniProt Q6V1X1)", "note": "Compare with care: the assays were run in different laboratories.", "UniProt P79208, sequence (whole entry, looked up)": "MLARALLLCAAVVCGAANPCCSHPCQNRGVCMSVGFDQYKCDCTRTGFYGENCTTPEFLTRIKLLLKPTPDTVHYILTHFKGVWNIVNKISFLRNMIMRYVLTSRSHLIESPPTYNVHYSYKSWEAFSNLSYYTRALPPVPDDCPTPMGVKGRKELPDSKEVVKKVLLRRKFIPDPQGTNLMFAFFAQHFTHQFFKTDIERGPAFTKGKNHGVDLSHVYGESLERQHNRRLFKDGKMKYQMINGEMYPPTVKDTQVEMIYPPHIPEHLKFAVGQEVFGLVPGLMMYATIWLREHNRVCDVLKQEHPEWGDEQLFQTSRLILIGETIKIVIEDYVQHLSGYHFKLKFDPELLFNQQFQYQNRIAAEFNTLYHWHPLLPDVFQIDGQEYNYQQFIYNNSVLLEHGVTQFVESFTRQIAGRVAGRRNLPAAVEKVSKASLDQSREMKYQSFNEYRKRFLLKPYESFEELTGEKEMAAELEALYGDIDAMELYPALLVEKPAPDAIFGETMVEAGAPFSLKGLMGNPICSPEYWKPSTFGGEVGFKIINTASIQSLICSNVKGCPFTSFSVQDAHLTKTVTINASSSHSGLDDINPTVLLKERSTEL", "UniProt Q76MJ5, sequence (whole entry, looked up)": "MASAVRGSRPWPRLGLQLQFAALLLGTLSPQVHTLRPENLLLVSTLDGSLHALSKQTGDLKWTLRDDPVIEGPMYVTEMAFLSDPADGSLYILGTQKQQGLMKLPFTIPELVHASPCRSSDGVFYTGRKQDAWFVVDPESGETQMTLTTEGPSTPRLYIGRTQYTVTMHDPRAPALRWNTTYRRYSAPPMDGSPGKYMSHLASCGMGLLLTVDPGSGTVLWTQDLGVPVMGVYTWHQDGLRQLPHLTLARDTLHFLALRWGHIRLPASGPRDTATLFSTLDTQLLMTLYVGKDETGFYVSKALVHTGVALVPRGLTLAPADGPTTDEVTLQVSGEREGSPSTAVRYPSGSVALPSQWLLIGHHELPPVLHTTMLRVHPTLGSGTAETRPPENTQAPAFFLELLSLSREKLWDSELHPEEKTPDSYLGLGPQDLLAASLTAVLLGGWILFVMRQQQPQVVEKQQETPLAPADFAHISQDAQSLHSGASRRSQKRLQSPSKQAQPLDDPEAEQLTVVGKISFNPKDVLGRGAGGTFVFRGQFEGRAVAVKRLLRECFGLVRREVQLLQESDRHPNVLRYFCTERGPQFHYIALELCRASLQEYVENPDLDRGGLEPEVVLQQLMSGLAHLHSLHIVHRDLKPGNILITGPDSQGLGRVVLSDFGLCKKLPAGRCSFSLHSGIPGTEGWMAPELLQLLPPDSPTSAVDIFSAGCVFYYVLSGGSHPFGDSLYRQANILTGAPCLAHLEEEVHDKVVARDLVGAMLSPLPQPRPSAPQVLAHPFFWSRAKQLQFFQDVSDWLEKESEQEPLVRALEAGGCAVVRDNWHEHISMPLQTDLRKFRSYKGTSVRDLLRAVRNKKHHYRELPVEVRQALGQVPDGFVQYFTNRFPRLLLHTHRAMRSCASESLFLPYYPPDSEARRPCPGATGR", "UniProt P07711, sequence (whole entry, looked up)": "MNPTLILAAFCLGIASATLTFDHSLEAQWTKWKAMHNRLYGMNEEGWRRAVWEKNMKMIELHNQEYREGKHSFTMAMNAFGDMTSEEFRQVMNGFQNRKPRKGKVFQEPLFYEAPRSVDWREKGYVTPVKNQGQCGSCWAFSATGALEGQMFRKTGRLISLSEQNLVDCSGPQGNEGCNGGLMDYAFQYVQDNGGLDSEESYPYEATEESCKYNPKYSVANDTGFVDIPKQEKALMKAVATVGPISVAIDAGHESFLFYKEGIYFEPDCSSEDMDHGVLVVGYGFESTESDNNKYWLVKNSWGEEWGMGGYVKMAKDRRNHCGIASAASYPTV", "UniProt Q6V1X1, sequence (whole entry, looked up)": "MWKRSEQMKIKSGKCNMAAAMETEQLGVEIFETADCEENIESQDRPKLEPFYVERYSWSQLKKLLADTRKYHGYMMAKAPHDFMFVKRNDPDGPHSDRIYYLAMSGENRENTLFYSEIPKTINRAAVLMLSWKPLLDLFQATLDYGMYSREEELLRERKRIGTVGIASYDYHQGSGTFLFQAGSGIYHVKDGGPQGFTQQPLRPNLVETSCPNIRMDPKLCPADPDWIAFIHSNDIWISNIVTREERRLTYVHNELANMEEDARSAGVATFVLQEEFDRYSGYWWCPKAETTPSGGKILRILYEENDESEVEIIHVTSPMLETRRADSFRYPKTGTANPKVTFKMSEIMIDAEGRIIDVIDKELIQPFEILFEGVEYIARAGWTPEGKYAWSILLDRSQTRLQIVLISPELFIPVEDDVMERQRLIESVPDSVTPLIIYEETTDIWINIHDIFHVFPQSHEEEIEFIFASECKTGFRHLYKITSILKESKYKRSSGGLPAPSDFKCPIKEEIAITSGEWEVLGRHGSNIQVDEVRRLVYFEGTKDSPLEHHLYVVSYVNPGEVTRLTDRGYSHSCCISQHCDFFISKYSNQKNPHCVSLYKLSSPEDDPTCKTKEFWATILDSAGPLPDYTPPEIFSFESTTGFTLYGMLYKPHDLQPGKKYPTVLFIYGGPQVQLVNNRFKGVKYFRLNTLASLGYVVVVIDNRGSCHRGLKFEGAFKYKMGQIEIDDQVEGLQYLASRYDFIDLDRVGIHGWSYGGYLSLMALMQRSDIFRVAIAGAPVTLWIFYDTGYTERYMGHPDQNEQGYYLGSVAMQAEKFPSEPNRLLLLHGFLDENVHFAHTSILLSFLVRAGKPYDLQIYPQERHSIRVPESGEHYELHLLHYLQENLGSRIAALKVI", "UniProt P00760, sequence (whole entry, looked up)": "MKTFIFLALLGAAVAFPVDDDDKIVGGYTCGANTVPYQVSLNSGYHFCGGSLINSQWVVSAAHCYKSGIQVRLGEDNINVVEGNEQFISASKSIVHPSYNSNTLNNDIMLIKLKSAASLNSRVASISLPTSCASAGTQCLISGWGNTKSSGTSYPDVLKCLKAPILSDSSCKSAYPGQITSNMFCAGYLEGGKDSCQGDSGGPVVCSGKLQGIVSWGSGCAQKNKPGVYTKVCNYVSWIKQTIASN", "UniProt O75460, sequence (whole entry, looked up)": "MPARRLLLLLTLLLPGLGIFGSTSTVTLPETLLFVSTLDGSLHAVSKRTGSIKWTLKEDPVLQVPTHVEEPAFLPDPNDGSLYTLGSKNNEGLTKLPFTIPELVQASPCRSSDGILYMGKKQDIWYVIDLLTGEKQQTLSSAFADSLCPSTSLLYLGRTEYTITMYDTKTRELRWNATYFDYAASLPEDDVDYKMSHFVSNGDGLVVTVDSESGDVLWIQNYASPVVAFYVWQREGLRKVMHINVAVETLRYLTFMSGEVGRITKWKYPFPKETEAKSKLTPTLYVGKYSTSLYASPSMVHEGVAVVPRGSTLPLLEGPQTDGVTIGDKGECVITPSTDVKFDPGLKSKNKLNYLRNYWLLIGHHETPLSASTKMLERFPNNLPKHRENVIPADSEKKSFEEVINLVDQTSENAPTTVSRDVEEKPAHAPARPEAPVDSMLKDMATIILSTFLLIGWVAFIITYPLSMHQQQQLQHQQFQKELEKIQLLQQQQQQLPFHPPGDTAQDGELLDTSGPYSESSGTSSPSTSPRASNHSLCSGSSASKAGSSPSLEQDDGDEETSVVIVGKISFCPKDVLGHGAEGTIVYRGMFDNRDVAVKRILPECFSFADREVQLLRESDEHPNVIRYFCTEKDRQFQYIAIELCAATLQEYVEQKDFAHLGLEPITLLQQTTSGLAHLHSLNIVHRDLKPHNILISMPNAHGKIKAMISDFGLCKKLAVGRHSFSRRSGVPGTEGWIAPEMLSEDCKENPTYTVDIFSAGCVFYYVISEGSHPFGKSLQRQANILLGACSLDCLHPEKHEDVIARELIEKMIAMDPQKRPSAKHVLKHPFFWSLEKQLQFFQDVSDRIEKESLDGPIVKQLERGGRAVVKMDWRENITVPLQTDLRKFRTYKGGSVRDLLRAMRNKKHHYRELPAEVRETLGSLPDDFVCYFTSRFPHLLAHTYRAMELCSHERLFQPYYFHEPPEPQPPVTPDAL", "UniProt P19784, sequence (whole entry, looked up)": "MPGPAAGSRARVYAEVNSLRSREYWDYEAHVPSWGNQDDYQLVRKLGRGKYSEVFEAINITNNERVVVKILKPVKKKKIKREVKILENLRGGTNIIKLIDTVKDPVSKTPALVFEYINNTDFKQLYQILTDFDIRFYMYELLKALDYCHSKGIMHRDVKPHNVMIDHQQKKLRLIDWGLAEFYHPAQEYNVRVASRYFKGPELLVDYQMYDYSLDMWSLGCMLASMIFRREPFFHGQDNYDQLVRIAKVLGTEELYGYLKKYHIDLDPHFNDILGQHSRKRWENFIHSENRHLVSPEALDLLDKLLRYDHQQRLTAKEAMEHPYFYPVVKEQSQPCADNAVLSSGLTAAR", "UniProt Q969S8, sequence (whole entry, looked up)": "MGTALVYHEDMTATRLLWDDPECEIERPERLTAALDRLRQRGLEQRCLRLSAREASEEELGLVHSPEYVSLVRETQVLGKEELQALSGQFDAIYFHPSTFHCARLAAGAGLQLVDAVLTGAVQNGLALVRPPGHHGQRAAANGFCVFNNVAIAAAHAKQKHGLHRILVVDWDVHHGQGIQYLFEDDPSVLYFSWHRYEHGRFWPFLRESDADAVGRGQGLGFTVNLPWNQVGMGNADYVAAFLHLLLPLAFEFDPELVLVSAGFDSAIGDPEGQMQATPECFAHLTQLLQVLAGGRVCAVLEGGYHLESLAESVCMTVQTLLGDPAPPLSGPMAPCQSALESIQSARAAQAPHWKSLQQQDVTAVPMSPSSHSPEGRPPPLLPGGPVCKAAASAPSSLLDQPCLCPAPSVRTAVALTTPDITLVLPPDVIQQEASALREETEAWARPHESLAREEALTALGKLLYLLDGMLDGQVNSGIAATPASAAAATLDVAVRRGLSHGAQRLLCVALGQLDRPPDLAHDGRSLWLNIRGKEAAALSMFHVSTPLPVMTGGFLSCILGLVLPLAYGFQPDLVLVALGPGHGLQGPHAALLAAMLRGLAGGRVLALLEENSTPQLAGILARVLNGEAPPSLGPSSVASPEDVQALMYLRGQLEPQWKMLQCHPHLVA"}
{"Compound": "CC[C@H](C)[C@H](NC(=O)[C@@H]1CSSC[C@H](NC(=O)[C@H](Cc2ccc(O)cc2)NC(=O)CN)C(=O)N[C@@H](CO)C(=O)N[C@@H](CCCNC(=N)N)C(=O)N[C@@H](CO)C(=O)N[C@@H](Cc2ccc(O)cc2)C(=O)N2CCC[C@H]2C(=O)N2CCC[C@H]2C(=O)N[C@@H](C(C)C)C(=O)N1)C(=O)N1CCC[C@H]1C(=O)N[C@@H](CC(=O)O)C(N)=O", "target": "PRSS1", "scale": "reference: Ki trypsin over Ki MASP-2", "selectivity ratio": 0.6}
{"Compound": "NC1CCC(Nc2nccc(-c3cccnc3Oc3ccc(NS(=O)(=O)C4CCC4)c4ccccc34)n2)CC1 (centres unmarked)", "target": "ERN2 RNase domain", "test": "RNase activity", "scale": "reference: IRE1α IC50 over IRE1β IC50", "selectivity ratio": "< 0.0005 fold"}
{"Compound": "Cc1cc(N)nc(CCc2cncc(C(CN)Cc3cc(C)cc(N)n3)c2)c1 (racemic)", "target": "iNOS", "scale": "reference: Ki eNOS over Ki iNOS", "selectivity ratio": "~6 fold"}
{"Compound": "NC1CCC(Nc2nccc(-c3cccnc3Oc3ccc(NS(=O)(=O)c4ccccc4Cl)c4ccccc34)n2)CC1 (centres unmarked)", "target": "ERN2 RNase domain", "test": "RNase activity", "scale": "reference: IRE1α IC50 over IRE1β IC50", "selectivity ratio": "1.4 fold"}
{"Compound": "Cc1cccc(/N=N/c2ccc(O)c(C3c4c([nH]c(=S)[nH]c4=O)Nc4[nH]c(=S)[nH]c(=O)c43)c2)c1", "target": "PTGS2", "test": "enzyme activity, inhibitor, enzyme immunoassay", "scale": "reference: IC50 COX-1 over IC50 COX-2", "selectivity ratio": 1.65}
{"Compound": "O=S(=O)(Cc1ccccc1Cl)Nc1ccc(Oc2ncccc2-c2ccnc(N[C@H]3CCCNC3)n2)cc1F", "target": "ERN1 RNase domain", "test": "RNase activity", "scale": "reference: IRE1β IC50 over IRE1α IC50", "selectivity ratio": "~10 fold"}
{"Compound": "COC(=O)CN1CCCc2cc3cc(C(=O)NC(Cc4cccc(Cl)c4)C(=O)NCC=CS(=O)(=O)c4ccccc4)c(=O)oc3cc21 (centres unmarked)", "target": "CTSL", "scale": "reference: rhodesain over cathepsin L kinact/Ki", "selectivity ratio": 2}
{"Compound": "CC[C@H](C)[C@H](NC(=O)[C@@H]1CSSC[C@H](NC(=O)[C@H](Cc2ccc(O)cc2)NC(=O)CNC(C)=O)C(=O)N[C@@H](CO)C(=O)N[C@@H](CCCNC(=N)N)C(=O)N[C@@H](CO)C(=O)N[C@@H](Cc2ccc(O)cc2)C(=O)N2CCC[C@H]2C(=O)N2CCC[C@H]2C(=O)N[C@@H](C(C)C)C(=O)N1)C(=O)N1CCC[C@H]1C(=O)N[C@@H](CC(=O)O)C(N)=O", "target": "PRSS1", "scale": "reference: Ki trypsin over Ki MASP-2", "selectivity ratio": 0.9}
{"Compound": "Cn1c(=O)c(=O)n(C)c2cc(S(=O)(=O)Nc3ccc(S(=O)(=O)Nc4ncccn4)cc3)ccc21", "target": "Dipeptidyl peptidase 8", "test": "inhibitor", "setting": "added: Gly-Pro-AMC", "scale": "reference: IC50 DPP8/9 over DPP4", "selectivity ratio": "> 1000"}
{"Compound": "O=c1[nH]c(=S)[nH]c2c1C(c1cc(/N=N/c3cc(Cl)cc(Cl)c3)ccc1O)c1c([nH]c(=S)[nH]c1=O)N2", "target": "PTGS2", "test": "enzyme activity, inhibitor, enzyme immunoassay", "scale": "reference: IC50 COX-1 over IC50 COX-2", "selectivity ratio": 3.56}
{"Compound": "O=S(=O)(Nc1ccc(Oc2ncccc2-c2ccnc(N[C@H]3CCCNC3)n2)cc1F)c1ccccc1Cl", "target": "ERN2 RNase domain", "test": "RNase activity", "scale": "reference: IRE1α IC50 over IRE1β IC50", "selectivity ratio": "1 fold"}
{"Compound": "O=C(O)C(=O)O.O=C(c1ccc(NCCF)cc1)C1CCN(C2Cc3ccccc3CC2O)CC1 (single isomer, unassigned; (-))", "target": "sigma-2 receptor, rat", "scale": "reference: Ki sigma-2 over Ki VAChT", "selectivity ratio": 17700}
{"Compound": "CC(C)(C)OC(=O)NC(Cc1cccc(Cl)c1)C(=O)NCC=CS(=O)(=O)c1ccccc1 (centres unmarked)", "target": "CTSL", "scale": "reference: rhodesain over cathepsin L kinact/Ki", "selectivity ratio": 5.8}
{"Compound": "COc1ccc(C(=O)NO)cc1NC(=O)c1ccc(-c2ccccc2)cc1", "target": "HDAC10 (Homo sapiens, UniProt Q969S8)", "scale": "reference: HDAC10 over other HDACs", "selectivity ratio": "≥ 30 fold"}
{"Compound": "CCC1(CC)C(=O)N(c2cccc(CN3CCN(Cc4cccc5cccnc45)CC3)c2)C1=O", "target": "Dipeptidyl peptidase 8", "scale": "reference: Ki DPP9 over Ki target", "selectivity ratio": 0.2}
{"Compound": "O=S(=O)(Nc1cc(F)c(Oc2ncccc2-c2ccnc(N[C@H]3CCCNC3)n2)cc1Cl)c1ccccc1Cl", "target": "ERN2 RNase domain", "test": "RNase activity", "scale": "reference: IRE1α IC50 over IRE1β IC50", "selectivity ratio": "4.5 fold"}
{"Compound": "O=c1[nH]c(=S)[nH]c2c1C(c1cc(/N=N/c3ccc(F)c(Cl)c3)ccc1O)c1c([nH]c(=S)[nH]c1=O)N2", "target": "PTGS2", "test": "enzyme activity, inhibitor, enzyme immunoassay", "scale": "reference: IC50 COX-1 over IC50 COX-2", "selectivity ratio": 2.72}
{"Compound": "O=c1c(-c2cnn(-c3ccccc3)c2)c(C(F)(F)F)oc2c(O)c(O)ccc12", "target": "ROC1-CUL4A CTD", "test": "binding, microscale thermophoresis", "scale": "reference: Kd ROC1-CUL1 CTD over Kd ROC1-CUL4A CTD", "selectivity ratio": "~20 fold"}
{"Compound": "C[C@H]1CCCC[C@@H]1NC(=O)/C(C#N)=C/c1cn(-c2ccccc2)nc1-c1cccs1", "target": "PTGS2", "scale": "reference: COX-1 IC50 over COX-2 IC50", "selectivity ratio": 20}
{"Compound": "CC(C)c1ccc2c(c1)CC[C@H]1[C@](C)(C(=O)O)CCC[C@]21C", "target": "CA2 (Homo sapiens, UniProt P00918)", "scale": "reference: IC50 CA II over IC50 CA IX", "selectivity ratio": 5.6}
{"Compound": "NC1CCC(Nc2nccc(-c3cccnc3Oc3cccc4c(NS(=O)(=O)C5CCC5)cccc34)n2)CC1 (centres unmarked)", "target": "ERN1 RNase domain", "test": "RNase activity", "scale": "reference: IRE1β IC50 over IRE1α IC50", "selectivity ratio": "> 300 fold"}
{"Compound": "CCn1c(-c2cc(NC(=O)c3cnccn3)n[nH]2)cc2ccccc21", "target": "CSNK2A2 (Homo sapiens, UniProt P19784)", "test": "ADP-Glo", "scale": "reference: IC50 CK2α' over CK2α", "selectivity ratio": "3.3 fold"}
{"Compound": "O=C(O)C(=O)O.O=C(c1ccc(=O)n(CCF)c1)C1CCN(C2Cc3ccccc3CC2O)CC1 (single isomer, unassigned; (+))", "target": "sigma-2 receptor, rat", "scale": "reference: Ki sigma-2 over Ki VAChT", "selectivity ratio": 680}
{"note": "Some of these lines once more:"}
{"Compound": "NC1CCC(Nc2nccc(-c3cccnc3Oc3ccc(NS(=O)(=O)c4ccccc4Cl)c4ccccc34)n2)CC1 (centres unmarked)", "target": "ERN2 RNase domain", "test": "RNase activity", "scale": "reference: IRE1α IC50 over IRE1β IC50", "selectivity ratio": "1.4 fold"}
{"Compound": "Cc1cccc(/N=N/c2ccc(O)c(C3c4c([nH]c(=S)[nH]c4=O)Nc4[nH]c(=S)[nH]c(=O)c43)c2)c1", "target": "PTGS2", "test": "enzyme activity, inhibitor, enzyme immunoassay", "scale": "reference: IC50 COX-1 over IC50 COX-2", "selectivity ratio": 1.65}
